Assay results pooled from the literature.
Compare with care: the assays were run in different laboratories. ± gives the spread as reported. Converted amounts (≈) assume the structure as drawn.
Organism: Enterococcus faecalis

vancomycin  MIC (broth microdilution; ATCC 51299, VanB): 120 µg/mL
COc1cc2cc(-c3cccc(-c4ccc(-c5ccccc5)cc4)c3)[n+](C)c(C)c2cc1OC.[I-]  MIC (broth microdilution; ATCC 51575 VRE, brain heart infusion broth; 24 h, 37 °C): 4 to 8 µg/mL
CCC(=O)O[C@H]1[C@H](C)O[C@@H](O[C@H]2[C@H](N(C)C)[C@@H](O)[C@H](O[C@H]3[C@@H](CC=O)C[C@@H](C)[C@@H](O)/C=C/C=C/C[C@@H](C)OC(=O)C[C@@H](O)[C@@H]3OC)O[C@@H]2C)C[C@@]1(C)O  inhibition zone diameter (1528 vancomycin-resistant, DMSO-methanol; 50 µL of 2.0 mM, 24 h, 37 °C, 9 mm well): 16.5 mm
N#Cc1c(N2C(=O)CCC2=O)sc2c1CCC(c1ccccc1)C2 (centres unmarked)  IC50 (bacterial growth; ATCC 29122): 28.1 ± 1.56 µg/mL (≈ 83.5 µM)
O=C(COc1ccc(-c2nc3ccc(Cl)cc3[nH]2)cc1)N1CCOCC1  MIC (microbial growth, broth dilution; ATCC29212): 0.25 to 1 µg/mL (≈ 0.672 to 2.69 µM)
CCOC(=O)c1c(NC(=O)c2cccs2)sc2c1CCC(c1ccccc1)C2 (centres unmarked)  IC50 (bacterial growth; ATCC 29122): 37.3 ± 0.99 µg/mL (≈ 90.6 µM)
CCC[C@H]1c2ccccc2C=NN1C(=O)/C=C/c1cc(Cc2cnc(N)nc2N)cc(OC)c1OC (racemic)  MIC (microbial growth, broth dilution; ATCC29212): 0.06 to 0.125 µg/mL (≈ 0.123 to 0.257 µM)
CCN(CC)CCOc1ccc(-c2nc3ccccc3[nH]2)cc1  MIC (microbial growth, broth dilution; ATCC29212): > 256 µg/mL
